Measurements from different studies.
Compare with care: the assays were run in different laboratories. ± marks the error that the study gave.

Compound	assay	system	conditions	AUC(0-inf)
O=C(NC[C@H](O)CO)c1ccncc1Nc1ccc(I)cc1F		patients, plasma	oral, 60 mg single dose, day 1, median, with: FOLFIRI	1430 ng·h/mL
CCOc1ccc(Cc2cc([C@@H]3S[C@H](CO)[C@@H](O)[C@H](O)[C@H]3O)c(OC)cc2C)cc1		Japanese type 2 diabetes patients, plasma	oral, 5 mg single dose, eGFR 60-89 mL/min/1.73 m^2	2070 ± 395 ng·h/mL
COc1cc(OC)c(/C=C/S(=O)(=O)Cc2ccc(OC)c(NCC(=O)O)c2)c(OC)c1		cancer patients, phase I, plasma	oral, 700 mg twice daily, day 21 cycle 1	4960 ± 1710 ng·h/mL
NC(=O)c1cnc2[nH]ccc2c1N[C@@H]1[C@@H]2CC3C[C@H]1C[C@@](O)(C3)C2		healthy Japanese men, plasma	oral, 60 mg, single dose fasted	783 ng·h/mL
CNC(=O)c1ccc(-c2cnc3ncc(Cc4ccc5ncccc5c4)n3n2)cc1F		mild hepatic impairment	oral, 200 mg, mean	4870 ng·h/mL
COc1ccc2c3c1O[C@H]1C[C@@H](OC(=O)c4ccccc4)C=C[C@@]31CCN(C)C2		healthy young men, plasma	intranasal, 5.5 mg, single dose	20 ng·h/mL
Cc1nc(-c2ccc(OCC(C)C)c(C#N)c2)sc1C(=O)O		healthy Chinese adult volunteers, plasma	oral, 80 mg single dose, fed	14100 ± 4010 ng·h/mL
CN1C(=O)[C@@H](NC(=O)c2nnc(Cc3ccccc3)[nH]2)COc2ccccc21		healthy men, plasma	oral, 60 mg twice daily, day 1, geometric mean	4420 ng·h/mL
COc1cccc(N2CCN(C3=Nc4c(F)cccc4[C@H](CC(=O)O)N3c3cc(C(F)(F)F)ccc3OC)CC2)c1	UHPLC-MS/MS	healthy women, plasma	intravenous infusion, 720 mg single dose, 60 min infusion, HPβCD formulation	168000 ± 23200 ng·h/mL
CC(C)=CCC[C@](C)(O[C@@H]1O[C@H](CO)[C@@H](O)[C@H](O)[C@H]1O)[C@H]1CC[C@]2(C)[C@@H]1[C@H](O)C[C@@H]1[C@@]3(C)CC[C@H](O[C@@H]4O[C@H](CO)[C@@H](O)[C@H](O)[C@H]4O[C@@H]4O[C@H](CO)[C@@H](O)[C@H](O)[C@H]4O)C(C)(C)[C@@H]3CC[C@]12C	LC-MS/MS	healthy male volunteers, serum	oral, 3 g fermented red ginseng	191 ± 102 ng·h/mL
C[C@H]1Oc2cc(cnc2N)-c2c(nn(C)c2C#N)CN(C)C(=O)c2ccc(F)cc21		healthy adults	oral tablet, 100 mg single dose, adjusted geometric mean, with: rabeprazole 20 mg	8550 ng·h/mL
CC(C)=CCC[C@](C)(O[C@@H]1O[C@H](CO)[C@@H](O)[C@H](O)[C@H]1O)[C@H]1CC[C@]2(C)[C@@H]1[C@H](O)C[C@@H]1[C@@]3(C)CC[C@H](O[C@@H]4O[C@H](CO)[C@@H](O)[C@H](O)[C@H]4O)C(C)(C)[C@@H]3CC[C@]12C	LC-MS/MS	healthy female volunteers, serum	oral, 3 g red ginseng	9.28 ± 3.71 ng·h/mL
Nc1cccc2c1C(=O)N(C1CCC(=O)NC1=O)C2=O (stereo not shown)		healthy male smokers, plasma	oral, 4 mg, single dose, about 25 cigarettes per day, geometric mean	463 ng·h/mL

Repeated from above:
Compound	assay	system	conditions	AUC(0-inf)
COc1cc(OC)c(/C=C/S(=O)(=O)Cc2ccc(OC)c(NCC(=O)O)c2)c(OC)c1		cancer patients, phase I, plasma	oral, 700 mg twice daily, day 21 cycle 1	4960 ± 1710 ng·h/mL
NC(=O)c1cnc2[nH]ccc2c1N[C@@H]1[C@@H]2CC3C[C@H]1C[C@@](O)(C3)C2		healthy Japanese men, plasma	oral, 60 mg, single dose fasted	783 ng·h/mL
